{"data": "Measurements from different studies", "target": "Procathepsin L (CTSL, Homo sapiens, UniProt P07711)", "read-out": "enzyme activity", "mode": "inhibitor", "note": "Values joined by “and” are separate records of one study, mostly repeats; a detail may differ.", "UniProt P07711, sequence (whole entry, looked up)": "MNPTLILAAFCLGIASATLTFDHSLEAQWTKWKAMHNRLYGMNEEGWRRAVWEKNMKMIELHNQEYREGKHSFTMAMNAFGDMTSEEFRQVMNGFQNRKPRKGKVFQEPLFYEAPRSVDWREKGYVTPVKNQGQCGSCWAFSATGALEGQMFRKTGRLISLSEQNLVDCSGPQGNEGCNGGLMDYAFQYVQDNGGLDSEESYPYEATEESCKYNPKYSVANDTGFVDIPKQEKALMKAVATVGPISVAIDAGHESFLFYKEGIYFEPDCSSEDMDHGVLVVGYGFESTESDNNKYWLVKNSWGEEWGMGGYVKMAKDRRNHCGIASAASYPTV"}
{"SMILES": "CSCCC(C=O)NC(=O)C(CC(C)C)NC(=O)C(CC(C)C)NC(C)=O (stereo not shown)", "setting": "pH 5.5", "measurement": "IC50", "value": "0.41 nM"}
{"SMILES": "CCC1c2ccsc2CCN1C(=O)Cn1nnc2ccccc21 (stereo not shown)", "test": "FRET", "measurement": "IC50", "value": "> 100000 nM"}
{"SMILES": "CC(=O)NCCCC[C@H](NC(=O)[C@H](CCCNC(=N)N)NC(=O)[C@@H]1CCCN1C(=O)[C@H](C)NC(=O)[C@@H](N)CCCCN)C(=O)N[C@@H](CCC(N)=O)C(=O)N[C@@H](CC(C)C)C(=O)N[C@@H](C)C(=O)N[C@H](C(=O)N[C@@H](CCCCN)C(=O)N[C@@H](C)C(=O)N[C@@H](C)C(=O)N[C@@H](CCCNC(=N)N)C(=O)N[C@@H](CCCCN)C(=O)N[C@@H](CO)C(=O)N[C@@H](C)C(=O)N1CCC[C@H]1C(=O)N[C@@H](C)C(=O)O)[C@@H](C)O", "test": "fluorescence", "setting": "pH 6", "measurement": "Ki", "value": "10700 nM"}
{"SMILES": "CCC[C@H](NC(=O)[C@H](CC(C)C)NC(=O)OCc1ccccc1)C(=O)C(=O)NCc1ccccn1", "setting": "pH 5.5", "measurement": "IC50", "value": "0.69 nM and < 1 nM"}
{"SMILES": "CC(C)C[C@H](NC(=O)[C@H](CCC(N)=O)NC(=O)[C@H](CCCCN)NC(=O)[C@H](CCCNC(=N)N)NC(=O)[C@@H]1CCCN1C(=O)[C@H](C)NC(=O)[C@@H](N)CCCCN)C(=O)N[C@@H](C)C(=O)N[C@H](C(=O)N[C@@H](CCCCN)C(=O)N[C@@H](C)C(=O)N[C@@H](C)C(=O)N[C@@H](CCCNC(=N)N)C(=O)N[C@@H](CCCCN(C)C)C(=O)N[C@@H](CO)C(=O)N[C@@H](C)C(=O)N1CCC[C@H]1C(=O)N[C@@H](C)C(=O)O)[C@@H](C)O", "test": "fluorescence", "setting": "pH 6", "measurement": "Ki", "value": "4550 nM"}
{"SMILES": "CC(C)C[C@@H]1NC(=O)[C@H](C(C)C)NC(=O)[C@H](C)NC(=O)[C@H](Cc2ccc(O)cc2)NC(=O)[C@H](CCC(N)=O)NC(=O)[C@H](CC(C)C)NC(=O)[C@@H](Cc2ccc(O)cc2)NC(=O)CSC[C@@H](C(N)=O)NC(=O)[C@H](CCC(=O)O)NC(=O)[C@H](CCCNC(=N)N)NC(=O)[C@H](CCCNC(=N)N)NC(=O)[C@H](CCCCN)NC(=O)[C@H](Cc2c[nH]cn2)NC(=O)[C@H](CCCNC(=N)N)NC1=O", "measurement": "IC50", "value": "10900 nM"}
{"SMILES": "CC1CCc2c(sc3ncnc(Sc4nnc(CN5CCCC5)o4)c23)C1 (stereo not shown)", "test": "FRET", "measurement": "IC50", "value": "> 100000 nM"}
{"SMILES": "N=C(N)NCCC[C@H](NC(=O)[C@@H]1CCCN1C(=O)[C@H](N)Cc1ccccc1)C(=O)CCl", "test": "fluorescence", "measurement": "IC50", "value": "19 nM"}
{"SMILES": "C=CCn1c(C)cc(C(=O)COn2nnc3ccc(S(=O)(=O)N(C)C)cc32)c1C", "test": "FRET", "measurement": "IC50", "value": "> 100000 nM"}
{"SMILES": "COc1cccc2[nH]c(C(=O)N[C@@H](CC(C)C)C(=O)N[C@@H](C[C@@H]3CCNC3=O)C(=O)CO)cc12", "setting": "pH 5.5", "measurement": "IC50", "value": "456 nM and ~500 nM"}
{"note": "A few entries again:"}
{"SMILES": "CCC[C@H](NC(=O)[C@H](CC(C)C)NC(=O)OCc1ccccc1)C(=O)C(=O)NCc1ccccn1", "setting": "pH 5.5", "measurement": "IC50", "value": "0.69 nM and < 1 nM"}
